Measured values gathered from unrelated publications.
Numbered parts are unrelated; each lists some results of a single study.

Series 1 — method: competition protein-binding microarray; form: double-stranded DNA, one strand shown; sample: in vitro; tested at: 2 µM; together with: Pho4 competitor, 0.05 µM; direction: higher = stronger binding; shared flanks, not repeated: … GTCTTGATTCGCTTGACGCTGCTG
Target: Centromere-binding protein 1, full length, His-tagged (CBF1, Saccharomyces cerevisiae, UniProt P17106, residues 1-351)
Chain of UniProt P17106 (whole entry, looked up): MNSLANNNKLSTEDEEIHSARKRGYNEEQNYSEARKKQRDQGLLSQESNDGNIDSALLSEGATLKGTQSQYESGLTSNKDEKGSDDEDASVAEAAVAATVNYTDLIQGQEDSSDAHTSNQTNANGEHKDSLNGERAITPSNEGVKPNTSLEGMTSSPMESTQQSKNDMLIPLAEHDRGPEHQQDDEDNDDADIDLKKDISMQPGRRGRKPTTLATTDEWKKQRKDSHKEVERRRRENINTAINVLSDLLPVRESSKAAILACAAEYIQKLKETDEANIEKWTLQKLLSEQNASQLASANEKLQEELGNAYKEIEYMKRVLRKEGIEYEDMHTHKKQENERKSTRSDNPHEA
Setting: whole 60-bp probe, lowest competitor level
With `TTTATATAAAGGGTACTCGTGCAAACGGACATCGAG` the fluorescence intensity was 133 a.u.
For `GAGGCACTGCCTCTCCGCGTGAATGTCACTGAGTCG`, the fluorescence intensity was 68.2 a.u.
`GCCACCAACAATACCTTCGTGGGACATAGTTAAGTC` gave a fluorescence intensity of 77.9 a.u.
The fluorescence intensity of `TAAAAAGGCATTGAACTCGTGGTGACGGGCATACCC` is reported as 64.4 a.u.
`AACCAGTCTTTCATCACCGTGATGGTAAATTATATA` has a fluorescence intensity of 178 a.u.
For `GCTTGTTCATACAAGCTCGTGTAGCTAAATACGTAC`, the fluorescence intensity was 95.8 a.u.
`CGTCCTAGTGATTGCAAAGTGGGTGCCATGAGGAAG` gave a fluorescence intensity of 75.1 a.u.
`TGGTATAGCAATTTGCACGTTCACTGCCATTGACTT` has a fluorescence intensity of 94 a.u.
`CACAGACAGGATAGCTGCGTGGGACAATATTGTTGA` has a fluorescence intensity of 73.2 a.u.
`GTATAAAAAGAGTGGCATGTGAACTGCCTACCGTAA` gave a fluorescence intensity of 119 a.u.
For `GAAGCGTACGCCCATCACGTGACGGAAGTTGCAATG`, the fluorescence intensity was 11500 a.u.
`TCGAACGAAAAAAGAAACGTGATAGCGATGTAAGTA` has a fluorescence intensity of 513 a.u.
For `CCGTAGCCTCTTACCAATGTGACGGAGACCCCACCG`, the fluorescence intensity was 62.2 a.u.
With `CGTTCCAAGCCGAGTCACGTTTGTGGTGTTGTCGTA` the fluorescence intensity was 449 a.u.
`GGGATGGTGATGGTATACGTGGTTACGTCTTTTACA` has a fluorescence intensity of 92.1 a.u.
`CCGACGTCGGAGAGGCAGGTGATGTTCGGCTCGGCC` has a fluorescence intensity of 69.2 a.u.
The fluorescence intensity of `GTCTTGTCTCATTGTCCGGTGGGTGTCCCCACTTCA` is reported as 81.7 a.u.
The fluorescence intensity of `CTTTCCCGATCTTGTCTCGTGGGTGTAGCACATTTG` is reported as 97 a.u.
With `AAAGCGGTAATTTGTCACGGCACTTCACATATCTAT` the fluorescence intensity was 124 a.u.
The fluorescence intensity of `CGGGGTTAAGTTTTTCACGTGCGCTGCTTGCAGCAG` is reported as 652 a.u.
`AAATTACTAAGTTGGGGGGTGGGTGACGCCGTATGA` has a fluorescence intensity of 172 a.u.
`ATGTCCATTCCCTGGCACGTGATGGCGAGTACTTCC` has a fluorescence intensity of 5410 a.u.
`TGCGCAACAACTTGGTAAGTGGGTGTATGTCTAGAA` has a fluorescence intensity of 65.6 a.u.
For `CTTCTGTAAATTTGTCACCGAACTTGACGCGCCCCG`, the fluorescence intensity was 77.7 a.u.
With `CGGGGTTAAGTTTGTGGCGTGGGTGGCTTGCAGCAG` the fluorescence intensity was 56.3 a.u.

Series 2 — method: RNA Bind-n-Seq; form: RNA; sample: in vitro; tested at: 365 nM; baseline: no-protein control; direction: higher = stronger binding
Target: RNA binding protein fox-1 homolog 2, RRM domain, GST-SBP tag (RBFOX2, Homo sapiens, UniProt O43251-10, residues 100-194)
Setting: natural RNA segment, single round, ends assumed
Shared flanks, not repeated: GGGAGUUCUACAGUCCGACGAUC … UGGAAUUCUCGGGUGCCAA
Construct (chain): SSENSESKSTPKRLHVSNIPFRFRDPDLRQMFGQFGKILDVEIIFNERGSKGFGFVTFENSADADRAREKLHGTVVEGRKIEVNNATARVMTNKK
`UUGGUUUGGCCUCCAUCCUCAUCUCUCUUGGGCCAAGCCAGCUGCCUAGGUCCCCCAAGCAUGGGGGACCCCUUCCCACAUAUAAGUUGAGAAGGUGCCUGCCAUAGCCA` — result for “RBNS enrichment (R)”: 0.48.
For `GCCGCCUACCCCGCCCGCCACGCCGCCGUCGAUGCCAGCGCUGUCCCCACGGGUACCAGGAAGUGCAGAGCCGCACAGGAGCUGCCCCGGAGCUGAGGGGACGGUCUUCG`, “RBNS enrichment (R)” read 0.23.
`GUCGGCAUCGAAAGAGAAAUGGAAAUCCCUUGACAUCUGCUACCUCCUCCCCCCUCCUCUGAAACAGCUGCCUUAGCUUCAGGAACCUCGAGUACUGUGGGCAAUUUAGA`: “RBNS enrichment (R)” 0.483.
For `CAACCUCUGCCCCCUCCUCCCAGAGCAGAUGGGGUCUGGAUGGGGAGCAGAGGGCACCCCAGGCCCUUCUUGCUCCACAGUCCCCCGCCCGCAGCAUACUCCACUCAUAA`, “RBNS enrichment (R)” read 0.357.
For `ACGAUAUUUUAAAUAGUUGUGUACAUGAAGCAUGGUUUGUGGUAACUUAUGUGAGGGGUUUUCCCAUUUUUUGUCUUGUUGGUGCUCAAAAAGUUUUGGAUUUUGGAGCA`, “RBNS enrichment (R)” read 34.7.
Under “RBNS enrichment (R)”, `UUAAGAUUAAAAGCUAGAAAUCAGAUGGUCUGCUUCUGCUAUGUCUGUAGACCGAUUGGAUGUAUGUGGAGGCUGGCCAGAUGGCAACUGAUGACUUGUGUGCAAACAAG` is recorded as 0.481.
`AUGUAGGACCAGGAGUAUCUCCUCAGGUGACCAGUUUUGGGGACCCGUAUGUGGCAAAUUCUAAGCUGCCAUAUUGAACAUCAUCCCACUGGGAGUGGUUAUGUUGUAUC` — result for “RBNS enrichment (R)”: 0.336.
Under “RBNS enrichment (R)”, `GACUUCCAGAUGGUCUCCCGAACCGCCUGGCUCUGCCGGCGCCCUCCUCACGUCAGGAGCAAGCAGCCGUGGACCCCUAAGCCGAGCUGGUGGAAGGCCCCUCCCCAUCG` is recorded as 0.271.
Under “RBNS enrichment (R)”, `CCCCAACUUCCUCAAAGCCCAAAGCCAAGGGAAGGAUAAAUCAAGGCUCAAGGCUUCCCCAGCAAAGAUUAGGGAAAGAGACUUGACCCCAGGACUGUACUACGACUCUU` is recorded as 0.226.
`AUUUCCUCACUCAGUGGAGAUUUGCCAAAUGAAUAAACGACACCUUUGAGGCCCCAGGUGAAGCGGGGCCCUACUCCGGCCUCUGCCUUGGGCCUCGCCUCUGUCCUCAG`: “RBNS enrichment (R)” 0.119.
Under “RBNS enrichment (R)”, `CUUUGUUGCUAUCAAUCCAAGAACUUAUUUGUACAUUUUUUUUUUCAAUAAAACUUUUCCAAUGACAUUUUGUUGGAGCGUGGAAGAAGAUUGGAUCAGGAGAUUCUUAC` is recorded as 0.45.
Under “RBNS enrichment (R)”, `CUACAGGACUCCCGAGUGUGAGCCGCGGUUCCUCUGUUGCAGCGCAGCCGUGUGUGCUGUGGAGCCGAGGCCGUCCUGCAGGAAGCCGCGUGACUCCCGCCUCCUCCCUG` is recorded as 0.611.

Series 3 — method: universal PBM; form: double-stranded DNA, one strand shown; sample: in vitro; tested at: not given; direction: higher = stronger binding
Target: Sal-like protein 4, full length isoform B (SALL4, Homo sapiens, UniProt Q9UJQ4-2, residues 1-616)
Setting: 8-mer, flanks averaged, mean of replicates
`AAACCTGA` gave an E-score of -0.0423.
`AACTAGCT` gave an E-score of 0.0641.
For `CTCTACCA`, the E-score was -0.0747.
`GCGGCGCC` gave an E-score of -0.4.
For `GAGCCGAA`, the E-score was -0.0662.
With `ATTCTCGG` the E-score was 0.0374.
With `CCCCTTTC` the E-score was -0.106.
With `GCTATAGA` the E-score was 0.179.
`ATGAAAGC` gave an E-score of 0.18.
With `CGGACAGA` the E-score was -0.245.
With `CCCTCCGA` the E-score was -0.344.
`CGTCTGCA` gave an E-score of -0.0772.
The E-score of `GGGGGTAC` is reported as -0.166.
With `AAACTGCC` the E-score was -0.0856.
`AGTAAAAG` has an E-score of 0.205.
The E-score of `CGCCGAGA` is reported as -0.231.
For `AGTCGGTG`, the E-score was -0.324.
`GTGCTTAA` has an E-score of 0.0871.
`AAAAAGTT` gave an E-score of 0.228.
With `ACTCCGGG` the E-score was -0.243.
`AGTAGGGC` gave an E-score of -0.0508.
`CGCCTCCC` gave an E-score of -0.348.
`ATCGGTGA` gave an E-score of 0.026.
The E-score of `GACTAGAA` is reported as -0.0115.
The E-score of `CACGGTCG` is reported as -0.358.

Series 4 — method: protein binding microarray; form: double-stranded DNA, one strand shown; sample: in vitro; tested at: not given; baseline: not given; direction: higher = stronger binding
Target: Histone acetyltransferase KAT6A, winged helix 1, GST fusion (KAT6A, Homo sapiens, UniProt Q92794, residues 1-85)
Setting: 8-mer, flanks averaged, mean of 2 arrays, mostly near background
Residues (chain): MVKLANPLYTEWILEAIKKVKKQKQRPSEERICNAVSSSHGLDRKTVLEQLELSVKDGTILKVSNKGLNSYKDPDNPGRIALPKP
The E-score of `CGTACCTA` is reported as 0.0512.
For `CTTAGACC`, the E-score was -0.221.
For `CATCCGGA`, the E-score was 0.0774.
For `AAGTTAAT`, the E-score was -0.208.
The E-score of `CATTGCGG` is reported as 0.246.
`CAGTATAC` has an E-score of -0.149.
The E-score of `CACAAGCG` is reported as 0.132.
The E-score of `CCTCCCGC` is reported as 0.309.
With `CTGAGTAC` the E-score was -0.0813.
With `CAGAATGC` the E-score was 0.174.
For `ATATACGC`, the E-score was 0.251.
`CTAACCCA` gave an E-score of -0.122.
`CGTAACTA` has an E-score of 0.165.
`ATTCCGAG` has an E-score of -0.013.
The E-score of `GCTAACCA` is reported as -0.168.
For `CCTTGGTC`, the E-score was -0.0732.
`ACTCCGCC` has an E-score of 0.273.
For `AGGTTAGG`, the E-score was -0.299.
For `ATCCTATA`, the E-score was -0.118.
The E-score of `CTTGGGTA` is reported as -0.132.
For `ATTCGCTA`, the E-score was -0.102.
With `AAGCCTCA` the E-score was -0.34.

Series 5 — method: RNA Bind-n-Seq; form: RNA; sample: in vitro; tested at: 20 nM; setting: 6-mer, flanks averaged, single round; together with: 150 mM LiCl; baseline: input library; direction: higher = stronger binding
Target: TAR DNA-binding protein 43, full length, His tag (TARDBP, Homo sapiens, UniProt Q13148, residues 1-414)
`ACCCUC` — result for “6-mer enrichment (R)”: 0.988.
`GGCUUC` — result for “6-mer enrichment (R)”: 0.87.
`CUGAGC` — result for “6-mer enrichment (R)”: 0.88.
`CAGCAG` — result for “6-mer enrichment (R)”: 0.905.
Under “6-mer enrichment (R)”, `UACUGU` is recorded as 0.97.
For `CAGCAC`, “6-mer enrichment (R)” read 0.884.
`GCGGUC` — result for “6-mer enrichment (R)”: 0.955.
`CCAGGU` — result for “6-mer enrichment (R)”: 0.962.
`ACCUAG`: “6-mer enrichment (R)” 0.815.
`GAUUGA`: “6-mer enrichment (R)” 0.956.
`AACGUU` — result for “6-mer enrichment (R)”: 0.846.
Under “6-mer enrichment (R)”, `AGAAAG` is recorded as 0.93.
Under “6-mer enrichment (R)”, `UGGCUG` is recorded as 1.12.
For `GAUUCG`, “6-mer enrichment (R)” read 0.889.
Under “6-mer enrichment (R)”, `CGGAGA` is recorded as 0.975.
Under “6-mer enrichment (R)”, `UAAACG` is recorded as 0.82.
`UGACGA`: “6-mer enrichment (R)” 0.849.
`AACUUG` — result for “6-mer enrichment (R)”: 0.885.
`UAAUUU` — result for “6-mer enrichment (R)”: 1.11.

Repeated from above (series 1):
With `CGTTCCAAGCCGAGTCACGTTTGTGGTGTTGTCGTA` the fluorescence intensity was 449 a.u.
`ATGTCCATTCCCTGGCACGTGATGGCGAGTACTTCC` has a fluorescence intensity of 5410 a.u.
`GGGATGGTGATGGTATACGTGGTTACGTCTTTTACA` has a fluorescence intensity of 92.1 a.u.
`CCGACGTCGGAGAGGCAGGTGATGTTCGGCTCGGCC` has a fluorescence intensity of 69.2 a.u.
`GTATAAAAAGAGTGGCATGTGAACTGCCTACCGTAA` gave a fluorescence intensity of 119 a.u.
The fluorescence intensity of `GTCTTGTCTCATTGTCCGGTGGGTGTCCCCACTTCA` is reported as 81.7 a.u.
With `CGGGGTTAAGTTTGTGGCGTGGGTGGCTTGCAGCAG` the fluorescence intensity was 56.3 a.u.
`TCGAACGAAAAAAGAAACGTGATAGCGATGTAAGTA` has a fluorescence intensity of 513 a.u.
With `AAAGCGGTAATTTGTCACGGCACTTCACATATCTAT` the fluorescence intensity was 124 a.u.
The fluorescence intensity of `CGGGGTTAAGTTTTTCACGTGCGCTGCTTGCAGCAG` is reported as 652 a.u.
For `GAGGCACTGCCTCTCCGCGTGAATGTCACTGAGTCG`, the fluorescence intensity was 68.2 a.u.
